Experimental data collected from several papers.
Each line is one published result; not all experiments were run side by side. ± marks the error that the study gave.
hdac6 CD2 catalytic domain: Histone deacetylase 6, CD2 catalytic domain (hdac6, Danio rerio, UniProt F8W4B7)
Squalene synthase ERG9: Squalene synthase ERG9 (Saccharomyces cerevisiae, UniProt P29704)
SUMO-activating enzyme subunit 2 with SAE1: SUMO-activating enzyme subunit 2, with SAE1 (Homo sapiens, UniProt Q9UBT2)
KCNJ13 M125R: Inward rectifier potassium channel 13 (KCNJ13, Homo sapiens, UniProt O60928, M125R)

By UniProt entry, the sequences of proteins in these tests, tags left out. Residues count along the entry.
UniProt P29704, 1-420 limits assumed: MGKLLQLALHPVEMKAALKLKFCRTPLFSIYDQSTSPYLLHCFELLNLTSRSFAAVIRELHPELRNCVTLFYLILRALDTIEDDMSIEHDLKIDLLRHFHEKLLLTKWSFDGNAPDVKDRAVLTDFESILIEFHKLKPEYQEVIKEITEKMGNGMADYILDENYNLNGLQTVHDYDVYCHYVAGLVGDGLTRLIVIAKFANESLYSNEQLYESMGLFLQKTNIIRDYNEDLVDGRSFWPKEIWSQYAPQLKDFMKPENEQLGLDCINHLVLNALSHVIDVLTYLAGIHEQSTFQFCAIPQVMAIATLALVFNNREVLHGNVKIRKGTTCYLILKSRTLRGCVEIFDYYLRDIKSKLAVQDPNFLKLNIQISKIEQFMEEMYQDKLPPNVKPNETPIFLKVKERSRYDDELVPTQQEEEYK
UniProt O60928, whole entry M125R: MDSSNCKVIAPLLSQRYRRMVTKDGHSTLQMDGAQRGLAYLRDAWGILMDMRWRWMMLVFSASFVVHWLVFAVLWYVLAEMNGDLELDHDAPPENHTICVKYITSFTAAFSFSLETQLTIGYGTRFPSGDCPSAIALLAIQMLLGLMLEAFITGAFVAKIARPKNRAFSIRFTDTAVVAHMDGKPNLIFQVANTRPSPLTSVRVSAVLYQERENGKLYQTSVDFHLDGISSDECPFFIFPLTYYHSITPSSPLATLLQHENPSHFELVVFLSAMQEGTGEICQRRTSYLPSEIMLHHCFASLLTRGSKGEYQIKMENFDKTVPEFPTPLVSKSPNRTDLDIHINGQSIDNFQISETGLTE
UniProt C4Z6Z2, 1-611: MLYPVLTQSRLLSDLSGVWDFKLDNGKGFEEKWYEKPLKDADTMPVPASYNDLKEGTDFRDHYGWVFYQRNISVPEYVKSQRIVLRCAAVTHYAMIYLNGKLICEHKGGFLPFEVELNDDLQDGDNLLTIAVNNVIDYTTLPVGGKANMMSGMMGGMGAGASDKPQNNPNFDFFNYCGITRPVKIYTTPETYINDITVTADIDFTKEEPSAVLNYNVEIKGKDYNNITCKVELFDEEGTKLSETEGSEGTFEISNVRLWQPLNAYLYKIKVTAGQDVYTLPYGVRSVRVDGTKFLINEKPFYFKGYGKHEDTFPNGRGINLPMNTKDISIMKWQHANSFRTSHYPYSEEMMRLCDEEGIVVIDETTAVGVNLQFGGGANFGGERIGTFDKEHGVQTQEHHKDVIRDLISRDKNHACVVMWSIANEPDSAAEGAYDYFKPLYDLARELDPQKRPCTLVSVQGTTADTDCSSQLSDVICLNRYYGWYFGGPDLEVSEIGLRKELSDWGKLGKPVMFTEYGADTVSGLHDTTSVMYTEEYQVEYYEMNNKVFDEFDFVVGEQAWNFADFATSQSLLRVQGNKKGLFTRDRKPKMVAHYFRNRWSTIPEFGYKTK
UniProt O60603, whole entry, looked up: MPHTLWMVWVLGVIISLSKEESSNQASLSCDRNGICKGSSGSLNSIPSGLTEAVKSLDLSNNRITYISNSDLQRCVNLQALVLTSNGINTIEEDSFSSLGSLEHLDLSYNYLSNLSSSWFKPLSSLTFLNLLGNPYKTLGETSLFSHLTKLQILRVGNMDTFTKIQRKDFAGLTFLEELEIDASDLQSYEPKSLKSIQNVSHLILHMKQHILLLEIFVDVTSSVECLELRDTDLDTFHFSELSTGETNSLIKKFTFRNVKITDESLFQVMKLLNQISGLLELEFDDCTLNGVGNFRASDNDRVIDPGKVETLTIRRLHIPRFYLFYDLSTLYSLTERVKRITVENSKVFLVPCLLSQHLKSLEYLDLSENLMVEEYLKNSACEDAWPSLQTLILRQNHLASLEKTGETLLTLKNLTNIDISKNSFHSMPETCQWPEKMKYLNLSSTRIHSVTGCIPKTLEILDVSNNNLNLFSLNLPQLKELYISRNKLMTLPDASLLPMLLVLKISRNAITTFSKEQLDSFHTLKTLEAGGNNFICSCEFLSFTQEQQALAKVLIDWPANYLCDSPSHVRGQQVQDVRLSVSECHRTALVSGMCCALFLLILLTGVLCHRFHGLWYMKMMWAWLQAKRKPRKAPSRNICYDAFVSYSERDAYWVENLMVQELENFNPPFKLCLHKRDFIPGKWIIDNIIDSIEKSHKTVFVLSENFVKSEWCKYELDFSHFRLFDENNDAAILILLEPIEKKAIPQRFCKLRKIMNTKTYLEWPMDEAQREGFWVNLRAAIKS
UniProt P52699, 19-246 limits assumed: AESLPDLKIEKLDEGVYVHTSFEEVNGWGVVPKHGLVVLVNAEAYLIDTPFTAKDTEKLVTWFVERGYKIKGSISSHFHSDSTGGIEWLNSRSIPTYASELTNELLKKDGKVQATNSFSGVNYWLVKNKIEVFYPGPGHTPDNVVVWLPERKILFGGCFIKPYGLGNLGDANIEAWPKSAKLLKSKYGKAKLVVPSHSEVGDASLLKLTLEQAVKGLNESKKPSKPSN
UniProt O43148, whole entry: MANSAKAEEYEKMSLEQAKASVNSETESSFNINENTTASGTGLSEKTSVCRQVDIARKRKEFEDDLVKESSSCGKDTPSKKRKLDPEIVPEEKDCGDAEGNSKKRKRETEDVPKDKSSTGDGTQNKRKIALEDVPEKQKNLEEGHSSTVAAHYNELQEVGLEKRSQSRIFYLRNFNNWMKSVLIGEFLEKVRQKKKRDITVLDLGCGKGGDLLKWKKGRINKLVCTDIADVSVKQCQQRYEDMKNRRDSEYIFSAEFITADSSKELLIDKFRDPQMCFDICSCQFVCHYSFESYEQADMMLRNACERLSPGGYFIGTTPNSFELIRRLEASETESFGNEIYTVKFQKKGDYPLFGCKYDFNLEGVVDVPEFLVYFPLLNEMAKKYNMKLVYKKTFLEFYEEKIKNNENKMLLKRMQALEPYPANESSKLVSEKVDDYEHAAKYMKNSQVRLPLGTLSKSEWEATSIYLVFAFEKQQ
UniProt Q8E0N2, whole entry: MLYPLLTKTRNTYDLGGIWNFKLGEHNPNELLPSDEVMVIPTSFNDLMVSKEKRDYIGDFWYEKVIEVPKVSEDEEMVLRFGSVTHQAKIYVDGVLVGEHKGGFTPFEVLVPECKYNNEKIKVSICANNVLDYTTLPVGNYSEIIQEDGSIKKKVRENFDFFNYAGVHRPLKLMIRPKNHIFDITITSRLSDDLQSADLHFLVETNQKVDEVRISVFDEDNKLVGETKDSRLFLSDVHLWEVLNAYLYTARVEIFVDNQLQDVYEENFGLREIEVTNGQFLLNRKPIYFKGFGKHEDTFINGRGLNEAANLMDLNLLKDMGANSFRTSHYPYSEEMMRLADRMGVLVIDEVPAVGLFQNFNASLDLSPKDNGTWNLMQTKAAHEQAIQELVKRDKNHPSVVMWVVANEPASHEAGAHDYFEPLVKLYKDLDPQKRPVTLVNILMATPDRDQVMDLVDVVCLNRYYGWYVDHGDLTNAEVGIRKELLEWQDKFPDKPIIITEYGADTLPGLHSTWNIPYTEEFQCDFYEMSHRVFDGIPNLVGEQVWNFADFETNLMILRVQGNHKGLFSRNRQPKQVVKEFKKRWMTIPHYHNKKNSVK
UniProt A6T4I4, 1-159: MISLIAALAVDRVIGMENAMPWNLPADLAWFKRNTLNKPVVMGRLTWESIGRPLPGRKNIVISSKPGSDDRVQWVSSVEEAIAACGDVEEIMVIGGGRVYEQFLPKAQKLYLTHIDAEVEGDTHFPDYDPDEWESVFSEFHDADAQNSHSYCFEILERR
UniProt O14638, whole entry: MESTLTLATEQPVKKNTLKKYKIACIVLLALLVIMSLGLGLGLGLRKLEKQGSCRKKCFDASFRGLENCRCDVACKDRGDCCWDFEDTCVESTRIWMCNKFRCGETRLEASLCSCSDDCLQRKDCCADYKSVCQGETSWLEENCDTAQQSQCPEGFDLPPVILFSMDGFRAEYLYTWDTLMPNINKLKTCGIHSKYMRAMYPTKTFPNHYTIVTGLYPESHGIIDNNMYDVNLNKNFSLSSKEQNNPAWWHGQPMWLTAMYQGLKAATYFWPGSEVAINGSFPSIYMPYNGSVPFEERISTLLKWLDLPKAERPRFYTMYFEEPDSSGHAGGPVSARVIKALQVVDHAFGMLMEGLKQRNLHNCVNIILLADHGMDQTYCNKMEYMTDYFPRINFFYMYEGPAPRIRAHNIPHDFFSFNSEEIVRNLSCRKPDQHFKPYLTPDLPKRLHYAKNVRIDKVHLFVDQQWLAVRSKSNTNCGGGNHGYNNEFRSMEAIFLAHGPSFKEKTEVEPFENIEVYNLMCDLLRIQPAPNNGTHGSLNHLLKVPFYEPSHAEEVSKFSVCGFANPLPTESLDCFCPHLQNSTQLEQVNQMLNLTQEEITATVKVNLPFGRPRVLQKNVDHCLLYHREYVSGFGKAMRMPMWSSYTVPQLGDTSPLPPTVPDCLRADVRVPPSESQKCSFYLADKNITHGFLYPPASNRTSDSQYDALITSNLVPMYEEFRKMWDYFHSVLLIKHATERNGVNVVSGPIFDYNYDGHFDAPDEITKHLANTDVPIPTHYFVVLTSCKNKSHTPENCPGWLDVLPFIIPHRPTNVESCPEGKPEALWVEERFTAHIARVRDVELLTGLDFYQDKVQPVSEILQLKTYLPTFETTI
UniProt P28472, whole entry, looked up: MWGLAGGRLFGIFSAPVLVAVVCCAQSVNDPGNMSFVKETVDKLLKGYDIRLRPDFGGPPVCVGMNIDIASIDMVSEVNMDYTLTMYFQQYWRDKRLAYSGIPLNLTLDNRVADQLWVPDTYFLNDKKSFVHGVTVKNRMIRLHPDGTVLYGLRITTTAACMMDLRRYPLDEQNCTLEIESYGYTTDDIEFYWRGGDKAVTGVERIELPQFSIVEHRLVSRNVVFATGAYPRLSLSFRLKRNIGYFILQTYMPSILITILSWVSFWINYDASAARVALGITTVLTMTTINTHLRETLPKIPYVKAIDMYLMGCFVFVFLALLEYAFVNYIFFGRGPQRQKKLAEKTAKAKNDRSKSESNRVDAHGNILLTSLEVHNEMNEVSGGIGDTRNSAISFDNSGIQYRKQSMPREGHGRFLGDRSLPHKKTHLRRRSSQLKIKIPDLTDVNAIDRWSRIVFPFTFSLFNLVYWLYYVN
UniProt P54292, whole entry: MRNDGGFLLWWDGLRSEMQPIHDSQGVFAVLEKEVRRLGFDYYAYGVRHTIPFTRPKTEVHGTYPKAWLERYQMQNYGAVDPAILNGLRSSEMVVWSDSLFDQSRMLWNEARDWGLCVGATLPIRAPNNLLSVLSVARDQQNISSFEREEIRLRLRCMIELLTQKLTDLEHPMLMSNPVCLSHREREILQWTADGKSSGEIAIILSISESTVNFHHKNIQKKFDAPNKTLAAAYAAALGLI
UniProt P25779, whole entry, looked up: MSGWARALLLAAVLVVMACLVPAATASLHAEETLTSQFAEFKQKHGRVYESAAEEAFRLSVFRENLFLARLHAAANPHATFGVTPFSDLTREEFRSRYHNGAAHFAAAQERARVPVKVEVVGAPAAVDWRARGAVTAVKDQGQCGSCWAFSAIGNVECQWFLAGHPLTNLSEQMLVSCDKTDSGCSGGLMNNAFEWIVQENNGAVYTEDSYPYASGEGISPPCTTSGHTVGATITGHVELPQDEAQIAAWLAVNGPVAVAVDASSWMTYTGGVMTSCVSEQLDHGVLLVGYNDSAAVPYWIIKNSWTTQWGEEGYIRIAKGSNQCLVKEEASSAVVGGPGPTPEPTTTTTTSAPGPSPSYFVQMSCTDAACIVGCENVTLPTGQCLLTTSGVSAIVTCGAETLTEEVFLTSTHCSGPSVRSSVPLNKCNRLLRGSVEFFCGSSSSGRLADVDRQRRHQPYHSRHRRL

O=c1ccn([C@@H]2O[C@H](COP(=O)(O)OP(=O)(O)OP(=O)(O)O)[C@@H](O)[C@]2(F)Br)c(=O)[nH]1 — IC50 (Genome polyprotein, NS5B polymerase (Hepatitis C virus genotype 1a, UniProt P27958); polymerase activity, inhibitor; genotype 1a): 380 nM
OCCNc1nc(N2CCNCC2)c2sc3nc(-c4ccccc4)ccc3c2n1 — IC50 (Beta-glucuronidase (Lachnospira eligens, UniProt C4Z6Z2); enzyme activity, inhibitor): 500 ± 100 nM
O=C(NO)c1c(F)ccc(F)c1F — IC50 (hdac6 CD2 catalytic domain; enzyme activity, inhibitor, fluorogenic; 30 min, added: Ac-RHK(Ac)K(Ac)-AMC): > 20000 nM
COc1ccc2c(c1)c1c(C)c3cnccc3c(C)c1n2C — IC50 (Toll-like receptor 3 (Homo sapiens, UniProt O15455); reporter gene, SEAP reporter; HEK-Blue hTLR3; added: poly(I:C)): 120 ± 40 nM
O=c1[nH]c2sc3c(c2c(=O)n1O)CCC3 — IC50 (Gag-Pol polyprotein, integrase (gag-pol, Human immunodeficiency virus 1, UniProt P03366); integrase strand transfer, inhibitor): 5600 ± 500 nM
CC(C)=CCC/C(C)=C/CCCCN1[C@H](COP(=O)(O)OP(=O)(O)O)[C@@]1(C)CC/C=C(\C)CCC=C(C)C (single isomer, unassigned) — IC50 (Squalene synthase ERG9; enzyme activity, inhibitor; pH 7.2, added: 1.5 mM pyrophosphate, 100 µM [3H]FPP): 4800 ± 900 nM
NC(=O)c1cc(Sc2ccc(OC(F)(F)F)cc2)nc2ccccc12 — IC50 (Calmodulin-domain protein kinase 1 (CDPK1, Toxoplasma gondii, UniProt Q9BJF5); kinase activity, inhibitor, ELISA; added: syntide-2 substrate, ATP 25 µM): 700 nM
COc1ccc2c(=O)oc3c(OC)cc(CCN4CCCCC4)c4c(=O)oc1c2c34 — IC50 (Toll-like receptor 2 (TLR2, Homo sapiens, UniProt O60603); reporter gene, antagonist, SEAP reporter; HEK-Blue hTLR2 cells; 24 h, added: Pam3CSK4 100 ng/mL): 1700 ± 150 nM
COC(=O)C1=C(C(=O)OC)C2([C@H](C)Nc3ccccc3)C=CC1O2 (stereo partly shown) — IC50 (SUMO-activating enzyme subunit 2 with SAE1; SUMOylation, inhibitor, AlphaScreen; added: SUMO1-RanGAP1 conjugation): 23700 nM
O=C(O)CC1(n2cnnn2)CCCCC1 — IC50 (Metallo-beta-lactamase type 2 (Serratia marcescens, UniProt P52699); 10 min preincubation, added: FC5 fluorogenic substrate): 398000 nM
COC(=O)C1=C(C(=O)OC)C2([C@H](Cc3ccc(C)cc3)Nc3ccccc3)C=CC1O2 (stereo partly shown) — IC50 (SUMO-activating enzyme subunit 2 with SAE1; SUMOylation, inhibitor, AlphaScreen; added: SUMO1-RanGAP1 conjugation): 2140 nM
Cc1cccc(CN2CCN(C(c3ccccc3)c3ccc(Cl)cc3)CC2)c1 (stereo not shown) — IC50 (mRNA cap guanine-N(7) methyltransferase (RNMT, Homo sapiens, UniProt O43148); enzyme activity, inhibitor): 8800 ± 600 nM
c1cc2c(nc1N1CCOCC1)sc1c(N3CCNCC3)nnnc12 — IC50 (Beta-glucuronidase (Streptococcus agalactiae serotype V, UniProt Q8E0N2); enzyme activity, inhibitor): 1040 ± 80 nM
C/C=C(\C)C(=O)N[C@@H](CCC(N)=O)C(=O)N[C@@H]1C(=O)N[C@@H](CCC(N)=O)C(=O)N[C@H]2CC[C@@H](O)N(C2=O)[C@@H](Cc2ccccc2)C(=O)N(C)[C@@H](Cc2ccc(O)cc2)C(=O)N[C@@H](C)C(=O)O[C@@H]1C (single isomer, unassigned) — IC50 (Chymotrypsinogen A (Bos taurus, UniProt P00766); inhibitor; 10 min preincubation, pH 7.6, 37 °C, DMSO solvent, added: N-succinyl-Phe-p-nitroanilide): 5 µg/mL
CCc1nc(N)nc(N)c1C#CCc1cc(-c2ccncc2)ccc1OC — IC50 (Dihydrofolate reductase (Klebsiella pneumoniae, UniProt A6T4I4); inhibitor): 108 ± 8 nM
CC(Oc1ccccc1)C(=O)Nc1ccc(Cl)cc1 (stereo not shown) — IC50 (Inosine-5'-monophosphate dehydrogenase (guaB, Escherichia coli K-12, UniProt P0ADG7, L444Y/S250A); enzyme activity, inhibitor; corrected for open conformation): 540 nM
COc1ccc(C(O)(c2ccccc2)c2ccccc2)cc1 — IC50 (Kinesin-like protein KIF11 (KIF11, Homo sapiens, UniProt P52732); microtubule-stimulated ATPase activity, inhibitor): 7800 nM
Nc1c(S(=O)(=O)Oc2ccccc2NC(=O)Cc2c[nH]c3ccccc23)ccc2ccccc12 — IC50 (Ectonucleotide pyrophosphatase/phosphodiesterase family member 3 (Homo sapiens, UniProt O14638); added: p-nitrophenyl thymidine 5′-monophosphate): 1020 ± 4 nM
CN(CCCCCN(C)c1ccc(C(=N)N)cc1)c1ccc(C(=N)N)cc1 — IC50 (Glutamate NMDA receptor; Grin1/Grin2b, ifenprodil binding site (Grin1/Grin2b, Rattus norvegicus, UniProt P35439+Q00960); pH 7.4): 16600 nM
O=C(c1ccc(O)c(Sc2ccccc2)c1)N1Cc2ccccc2C1 — IC50 (Heat shock protein HSP 90-alpha (HSP90AA1, Homo sapiens, UniProt P07900); binding, fluorescence polarization; added: FITC-geldanamycin tracer): 4870 ± 290 nM
O=C1NC(=O)C2(Cc3ccccc32)N1 (racemic) — IC50 (GABA-A receptor alpha-1/beta-3, with gamma-2 subunit (GABRA1/GABRB3, Homo sapiens, UniProt P14867+P28472); alpha1beta3gamma2 receptor): 5100 nM
CCCCCCCCCCCN1[C@@H](COP(=O)(O)CP(=O)(O)O)[C@]1(C)CC/C=C(\C)CCC=C(C)C (relative stereo) — IC50 (Squalene synthase ERG9; enzyme activity, inhibitor; pH 7.2, added: 1.5 mM pyrophosphate, 100 µM [3H]FPP): no inhibition
C=CC[C@H](Nc1ccccc1)C12C=CC(O1)C(C(=O)OC)=C2C(=O)OC (stereo partly shown) — IC50 (SUMO-activating enzyme subunit 2 with SAE1; SUMOylation, inhibitor, AlphaScreen; added: SUMO1-RanGAP1 conjugation): 5770 nM
CNc1nc(N2CCNCC2)c2sc3nc(-c4ccccc4)ccc3c2n1 — IC50 (Beta-glucuronidase (Streptococcus agalactiae serotype V, UniProt Q8E0N2); enzyme activity, inhibitor): 720 ± 80 nM
Cc1cnc(Nc2ccc(N3CCN(C)CC3)cc2)nc1Nc1cccc(NS(=O)(=O)C(C)(C)C)c1 — IC50 (Receptor-type tyrosine-protein kinase FLT3 (FLT3, Homo sapiens, UniProt P36888); kinase activity; added: ATP 10 µM): 0.9 nM
CCCC(=O)NC1CCCC1 — IC50 (HTH-type quorum-sensing regulator RhlR (rhlR, Pseudomonas aeruginosa, UniProt P54292); reporter gene, antagonist; Escherichia coli JLD271 reporter; added: BHL 10 µM): 52200 nM
CNc1nc(N2CCNCC2)c2sc3ncccc3c2n1 — IC50 (Beta-glucuronidase (Lachnospira eligens, UniProt C4Z6Z2); enzyme activity, inhibitor): 500 ± 100 nM
O=C(O)C(Cc1nn[nH]n1)[C@@H]1CCN[C@H]1C(=O)O (relative stereo) — IC50 (native kainate receptor, rat; binding; rat cortical synaptosomes; added: [3H]kainate): 93000 nM
NCc1ccc(-c2ncc(NCC3CCNCC3)nc2-c2ccc(-c3ccoc3)cc2)cc1 — IC50 (Genome polyprotein, NS2B-NS3 protease (pol, Dengue virus type 3, UniProt Q6YMS4); enzyme activity, inhibitor; dengue virus type 3 NS2B-NS3 protease): 210 ± 70 nM
Cc1ccc(N=Nc2c(O)c(C(=O)O)cc3ccccc23)c(S(=O)(=O)O)c1 — IC50 (Bcl-2-related protein A1 (Mus musculus, UniProt Q07440, C113S/P104K); binding, inhibitor, fluorescence polarization competition; 3 µM Bfl-1/A1 protein, added: 375 nM FITC-Noxa peptide): 387000 nM
COc1ccccc1C(=O)NC1CCN(Cc2cc(Cl)c3cccnc3c2O)CC1 — IC50 (KCNJ13 M125R; ion current, inhibitor, thallium flux; T-REx-HEK293): 7100 nM
O=C(NO)c1cc(F)cc(F)c1F — IC50 (hdac6 CD2 catalytic domain; enzyme activity, inhibitor, fluorogenic; 30 min, added: Ac-RHK(Ac)K(Ac)-AMC): 4600 ± 500 nM
O=C(COC(=O)CNC(=O)C1CCCCC1)Nc1ccccc1Cl — IC50 (Cruzipain (Trypanosoma cruzi, UniProt P25779); enzyme activity, inhibitor): 520 nM
O=C(NC1CCN(Cc2cc(Cl)c3cccnc3c2O)CC1)OC1CCCC1 — IC50 (KCNJ13 M125R; ion current, inhibitor, thallium flux; T-REx-HEK293): 2800 nM

Excerpt of the above:
Cc1ccc(N=Nc2c(O)c(C(=O)O)cc3ccccc23)c(S(=O)(=O)O)c1 — IC50 (Bcl-2-related protein A1 (Mus musculus, UniProt Q07440, C113S/P104K); binding, inhibitor, fluorescence polarization competition; 3 µM Bfl-1/A1 protein, added: 375 nM FITC-Noxa peptide): 387000 nM
COc1ccccc1C(=O)NC1CCN(Cc2cc(Cl)c3cccnc3c2O)CC1 — IC50 (KCNJ13 M125R; ion current, inhibitor, thallium flux; T-REx-HEK293): 7100 nM
O=C(NO)c1cc(F)cc(F)c1F — IC50 (hdac6 CD2 catalytic domain; enzyme activity, inhibitor, fluorogenic; 30 min, added: Ac-RHK(Ac)K(Ac)-AMC): 4600 ± 500 nM
O=C(COC(=O)CNC(=O)C1CCCCC1)Nc1ccccc1Cl — IC50 (Cruzipain (Trypanosoma cruzi, UniProt P25779); enzyme activity, inhibitor): 520 nM
O=C(NC1CCN(Cc2cc(Cl)c3cccnc3c2O)CC1)OC1CCCC1 — IC50 (KCNJ13 M125R; ion current, inhibitor, thallium flux; T-REx-HEK293): 2800 nM
